Measurements from different studies.
Numbered parts are unrelated; each lists some results of a single study.

Study 1
Target: Sal-like protein 4, full length isoform B (SALL4, Homo sapiens, UniProt Q9UJQ4-2, residues 1-616)
Technique: universal PBM
Form: double-stranded DNA, one strand shown
Sample: in vitro
Concentration: not given
Setting: 8-mer, flanks averaged, mean of replicates
Direction: higher = stronger binding
| Sequence | E-score |
| --- | --- |
| GACTATTA | 0.188 |
| AGTCCATA | 0.144 |
| GGGCTAGA | -0.181 |
| GAAGCGCC | -0.246 |
| CGGTACGA | -0.192 |
| CTGCTTCC | -0.141 |
| ATATGGTC | 0.215 |
| CTGTATTC | 0.132 |
| CGTAGGTC | -0.189 |
| AACTGCGT | -0.084 |

Study 2
Target: Histone acetyltransferase KAT6A, both winged helices, GST fusion (KAT6A, Homo sapiens, UniProt Q92794, residues 1-181)
Technique: protein binding microarray
Form: double-stranded DNA, one strand shown
Sample: in vitro
Concentration: not given
Setting: 8-mer, flanks averaged, mean of 2 arrays, mostly near background
Relative to: not given
Direction: higher = stronger binding
Target sequence (chain): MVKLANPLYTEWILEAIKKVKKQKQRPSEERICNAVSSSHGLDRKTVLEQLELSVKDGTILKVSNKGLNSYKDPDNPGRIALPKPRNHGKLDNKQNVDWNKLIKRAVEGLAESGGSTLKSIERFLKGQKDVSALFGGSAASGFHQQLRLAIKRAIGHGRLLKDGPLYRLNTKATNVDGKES
| Sequence | E-score |
| --- | --- |
| ACACTCGA | 0.0073 |
| TCATTCAA | -0.0209 |
| GTCACTTA | -0.0521 |
| CGAAAAGA | -0.056 |
| TGCGAAAA | 0.104 |
| CGCGTCAA | 0.258 |

Study 3
Target: RNA binding protein fox-1 homolog 2, RRM domain, GST-SBP tag (RBFOX2, Homo sapiens, UniProt O43251-10, residues 100-194)
Technique: RNA Bind-n-Seq
Form: RNA
Sample: in vitro
Concentration: 365 nM
Setting: natural RNA segment, single round, ends assumed
Relative to: no-protein control
Direction: higher = stronger binding
Residues (chain): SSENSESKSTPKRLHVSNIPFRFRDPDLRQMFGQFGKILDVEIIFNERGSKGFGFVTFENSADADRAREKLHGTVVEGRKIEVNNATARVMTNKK
| Sequence | RBNS enrichment (R) |
| --- | --- |
| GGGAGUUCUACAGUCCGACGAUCAAUUAAAAGAGAAACUGUAACAGUCUAUAUCACUAUACCCUUUUAGUUUUAUAAUUAGCAUAUAUUUUGUUGUGAUUAUUUUUUUUGUUGGUGUGAAUAAAUCUUGUAACUGGAAUUCUCGGGUGCCAA | 1 |
| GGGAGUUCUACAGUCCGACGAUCUAGCCGAGGCCAGCCGUGUUGGGAAGAGAGCCAUGCCAAGGGUCCAGGCUGCUGUAGUCCACCUGUGCCCUACUCAUUUGGGGACAGGUGGUUUUUCUUGUAAACUUGUGUGGAAUUCUCGGGUGCCAA | 0.485 |
| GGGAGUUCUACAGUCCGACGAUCUGCUAAAACAGGCUUUAAAAGACAGCAAAAUAAGCCAUAUGUAGUGGUGUUAAGACUGUAAUCCCAGCACUCAGGAAGCUGAGACAGGAGAAUUGCCGGGAGUACAAAGUUGGAAUUCUCGGGUGCCAA | 0.802 |
| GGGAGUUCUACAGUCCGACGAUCCACGGGCUGGAGGGGCUGCCCAGGGACCUUGGUCUCGAAGCCAUACGUGGUUGUCUGCUUUCCUAAGGACUCCCAUUUCCAGUAUUAAAGAGAGAAUCAUCAUCAAGGCAUGGAAUUCUCGGGUGCCAA | 0.598 |
| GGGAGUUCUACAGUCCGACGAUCGGGGAGCACUGGCAGGGAGAGACAUUCUUGACUCCUCUCUUCCCUGGUGUGUUGUGAUCCAGGGAAUGAAAAGAAAUUUGACCCUGGAUUGGUUCUCUCCUUGGACUUAAUGGAAUUCUCGGGUGCCAA | 0.878 |
| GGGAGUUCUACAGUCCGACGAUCAGUUGUGAGUGAGCUCAGCUCCUUCAGGCCUGGCCUCUCCCAGAACAGAGUGAAGCCCCUGCCCUGGACCCCUGCUCCCUUCUACCCUUGAGGGCCACCAAUGGAAGAGCUGGAAUUCUCGGGUGCCAA | 0.414 |
| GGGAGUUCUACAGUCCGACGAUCUAGUUAGCUGUCUGUUGUCUGUAGCCCAGCUUGAUAAUGGAACUAUACAGCGAAGAGACAAUCUCUGCACUUUGCUAUGUAGCUGUGUACAUAUCACUACAGUUAUAGGAUGGAAUUCUCGGGUGCCAA | 0.604 |
| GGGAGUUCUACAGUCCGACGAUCUUUCAUAGAACACAACACUUGAGCAGAUGCAUCCAAGGAGGCGAGCAAAUGAAAAGGAAUCUAUUUAUGGAAUAAACUCGAAACCUAAAUUUCAGUAUUUUAGUAAUAUGUGGAAUUCUCGGGUGCCAA | 0.273 |
| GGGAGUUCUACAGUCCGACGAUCGAAUUUAAUGCUUCCAAAUGUUUGCAGUUACCAAACAUUGUUAUGCAAGAAAUCAUAAAAUGAAGACUUAUACCAUUGUGUUUAAGCUGUAUUGAAUUAUCUGUGGAAUGUGGAAUUCUCGGGUGCCAA | 0.388 |
| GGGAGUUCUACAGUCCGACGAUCUGUGAUAGAUUCCAGAUAUGCUUUUUGAUGUUUUCCUCUGCUCCAGCUCCAAGAAGUCAGCACACCUGCAUUUUAGCUCUGCAUGCAGCCCCAGCAGGCUGCGUGUUUAAUGGAAUUCUCGGGUGCCAA | 0.766 |

Single results of other studies
| Substance | tested on | assay | test system | setting | how to read | measurement | value |
| --- | --- | --- | --- | --- | --- | --- | --- |
| GSPLKALFTSTGL | Saccharomyces cerevisiae | peptide binding, yeast competitive growth sequencing | peptide, cyclin E2-Cln2 fusion | concentration not given, combined libraries | direction not given | binding score | -0.0107 |
| PhoQ, residues 284 288 289 292 302 303 WSHMKI | PhoP, residues 12 14 15 18 19 LHHVQ (Escherichia coli, UniProt P23836) | Sort-seq, refers to: YFP reporter | E. coli | PhoQ-PhoP variant library, added: 10 µM Mg2+ | relative to: high Mg2+ state, higher = stronger signaling | fold induction | 0.802 |

Excerpt of the above (study 3):
| Sequence | RBNS enrichment (R) |
| --- | --- |
| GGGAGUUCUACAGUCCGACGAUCAGUUGUGAGUGAGCUCAGCUCCUUCAGGCCUGGCCUCUCCCAGAACAGAGUGAAGCCCCUGCCCUGGACCCCUGCUCCCUUCUACCCUUGAGGGCCACCAAUGGAAGAGCUGGAAUUCUCGGGUGCCAA | 0.414 |
| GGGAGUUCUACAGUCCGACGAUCGGGGAGCACUGGCAGGGAGAGACAUUCUUGACUCCUCUCUUCCCUGGUGUGUUGUGAUCCAGGGAAUGAAAAGAAAUUUGACCCUGGAUUGGUUCUCUCCUUGGACUUAAUGGAAUUCUCGGGUGCCAA | 0.878 |
| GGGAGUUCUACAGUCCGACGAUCUAGCCGAGGCCAGCCGUGUUGGGAAGAGAGCCAUGCCAAGGGUCCAGGCUGCUGUAGUCCACCUGUGCCCUACUCAUUUGGGGACAGGUGGUUUUUCUUGUAAACUUGUGUGGAAUUCUCGGGUGCCAA | 0.485 |
| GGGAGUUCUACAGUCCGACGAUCGAAUUUAAUGCUUCCAAAUGUUUGCAGUUACCAAACAUUGUUAUGCAAGAAAUCAUAAAAUGAAGACUUAUACCAUUGUGUUUAAGCUGUAUUGAAUUAUCUGUGGAAUGUGGAAUUCUCGGGUGCCAA | 0.388 |
